# Assay results gathered from unrelated publications.
# Lines come from different studies, so protocols differ. Numbers after ± are the reported error.
SMILES,host,medium,route,dose,notes,AUC(0-inf) [ng·h/mL]
Cc1cc2c(cc1C1(c3ncc(C(=O)O)cn3)CC1)C(C)(C)CCC2(C)C,"rat, Sprague-Dawley, male",plasma,oral,100 mg/kg,sesame oil vehicle,51500
Cc1cc(/C=C/C#N)cc(C)c1Oc1nc(NC2CCN(Cc3ccc(P(C)(C)=O)cc3)CC2)nc2ccsc12,male Sprague-Dawley rats,plasma,intravenous,2 mg/kg,,640 ± 10.3
Cc1cc(O)c2c(c1)C(=O)c1cc(O)cc(O)c1C2=O.Cc1cc(O)c2c(c1)C(=O)c1cc(O)cc(O)c1C2=O.Cc1nc(C)c(C)nc1C,Sprague Dawley rat,plasma,oral,100 mg/kg,,27200 ± 23200
O=C(O)c1cccc(S(=O)(=O)Nc2ccccc2)c1,patients with moderate liver dysfunction,plasma,intravenous,400 mg/m^2 belinostat,"single 30 min infusion, cycle 1 day -7, mean",14800
COc1cc2ncnc(Oc3ccc(Nc4nccc5[nH]cc(-c6ccc(F)cc6)c(=O)c45)cc3F)c2cc1OC,Sprague-Dawley rat,plasma,intravenous,5 mg/kg,,421000
N=C(N)NCCC[C@H](NC(=O)[C@@H]1CCCN1C(=O)[C@H](Cc1ccccc1)NC(=O)[C@@H]1CCCN1C(=O)[C@H](Cc1c[nH]cn1)NC(=O)[C@@H](N)Cc1ccccc1)C(=O)O,Sprague-Dawley rat male,plasma,oral gavage,50 mg/kg,,99.4 ± 28.9
Oc1ccc2ccccc2c1/N=N/c1ccc(/N=N/c2ccccc2)cc1,Sprague-Dawley rats both sexes,whole blood,oral,50 mg/kg,,2710
CC(C)CNC(=O)/C=C/CCc1ccc2c(c1)OCO2,"rat, sham-operated",plasma,oral,50 mg/kg,,115 ± 44.9
COc1ccc(S(=O)(=O)N2CCc3ccccc3C2)cc1N1CCN(C(=O)c2ccc(F)cc2C(F)(F)F)CC1,rat,plasma,intravenous,10 mg/kg,,1720
C#Cc1cccc(Nc2ncnc3cc(OC)c(OCCCN4CCOCC4)cc23)c1,Sprague-Dawley rat,plasma,oral,40 mg/kg,,21200 ± 4830
CN1CCN(c2ccc(Nc3ncc(Cl)c(Nc4ccccc4P(C)(C)=O)n3)cc2Br)CC1,male Sprague-Dawley rat,plasma,oral,25 mg/kg,,6750
NC(=O)/C=C/c1cccc(S(=O)(=O)Nc2ccccc2)c1,patients with moderate liver dysfunction,plasma,intravenous,400 mg/m^2 belinostat,"single 30 min infusion, cycle 1 day -7, mean",17600
CC(C)(C)C(=O)Nc1ccc2[nH]c(CN3CCC(N(CCCN4CCOCC4)CC4OC(n5cnc6c(N)ncnc65)C(O)C4O)CC3)nc2c1 (centres unmarked),Sprague-Dawley rat male,plasma,intraperitoneal,20 mg/kg,,2740 ± 657
Cc1ccc(/N=N/c2c(O)ccc3ccccc23)c(C)c1,Sprague-Dawley rats both sexes,whole blood,oral,50 mg/kg,,2970
COc1cc(C=CC(=O)OCC2OC(OC3C(c4c(OC)cc5oc(-c6ccc(O)cc6)cc(=O)c5c4O)OC(CO)C(O)C3O)C(O)C(O)C2O)ccc1O (centres unmarked),"male Sprague-Dawley rat, normal",plasma,oral,6.8 g/kg,,23.5 ± 6.42
Cn1cc(C(N)=O)c(NC2C3CC4CC2CC(OS(=O)(=O)O)(C4)C3)c2ccnc1-2 (centres unmarked),"Japanese adults, moderate hepatic impairment",plasma,oral,150 mg single dose,"fasting, Child-Pugh B",1140
COC(=O)/C=C/C(=O)c1ccc(OC)cc1,"Sprague-Dawley rat, both sexes",plasma,oral,100 mg/kg,,1150 ± 167

# A few entries again:
SMILES,host,medium,route,dose,notes,AUC(0-inf) [ng·h/mL]
Cc1cc2c(cc1C1(c3ncc(C(=O)O)cn3)CC1)C(C)(C)CCC2(C)C,"rat, Sprague-Dawley, male",plasma,oral,100 mg/kg,sesame oil vehicle,51500
Cc1cc(/C=C/C#N)cc(C)c1Oc1nc(NC2CCN(Cc3ccc(P(C)(C)=O)cc3)CC2)nc2ccsc12,male Sprague-Dawley rats,plasma,intravenous,2 mg/kg,,640 ± 10.3
